Experimental data collected from several papers.
A part holds a random share of what one study measured.

Sample 1
Target: Cyclic AMP-responsive element-binding protein 1, full length (CREB1, Homo sapiens, UniProt P16220, residues 1-327)
Chain of UniProt P16220 (whole entry, looked up): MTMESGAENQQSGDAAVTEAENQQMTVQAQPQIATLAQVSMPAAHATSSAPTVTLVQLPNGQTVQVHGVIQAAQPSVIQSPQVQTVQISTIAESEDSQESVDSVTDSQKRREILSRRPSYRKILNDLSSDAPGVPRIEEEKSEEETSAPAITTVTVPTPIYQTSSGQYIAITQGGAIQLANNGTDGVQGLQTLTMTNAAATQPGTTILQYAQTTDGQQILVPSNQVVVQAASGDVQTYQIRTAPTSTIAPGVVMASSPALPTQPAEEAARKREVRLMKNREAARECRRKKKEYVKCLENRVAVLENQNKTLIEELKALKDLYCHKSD
Method: protein-binding microarray
Form: hairpin DNA
Sample: in vitro
Tested at: not given
Notes: whole hairpin DNA, median over replicate spots
Reference: not given
Direction: higher = stronger binding
Sequence	median fluorescence [a.u.]
GAGGCCGACGACGCCGTGCCTCCTGGCACGGCGTCGTCGGCCTCACACTC (5mC at 9 15 29 35)	3240
GAGGCCGACGCCGTCGTGCCTCCTGGCACGACGGCGTCGGCCTCACACTC (5mC at 9 11 15 29 35)	2970
GAGGCCGGCTGACGCGAGCCTCCTGGCTCGCGTCAGCCGGCCTCACACTC (5mC at 29)	3630
GAGGCCGACGACGCGGTGCCTCCTGGCACCGCGTCGTCGGCCTCACACTC (5mC at 9 29 30 35)	3530
GAGGCCGGATGACGTCTGCCTCCTGGCAGACGTCATCCGGCCTCACACTC	9090
GAGGCCGACGACGTCCGGCCTCCTGGCCGGACGTCGTCGGCCTCACACTC (5mC at 9 15 35)	2970
GAGGCCGACGACGTCGCGCCTCCTGGCGCGACGTCGTCGGCCTCACACTC (5mC at 9 15 17 29 35)	4370
GAGGCCGGCTGACGTCCGCCTCCTGGCGGACGTCAGCCGGCCTCACACTC (5mC at 17)	4280
GAGGCCGACGACCTCGTGCCTCCTGGCACGAGGTCGTCGGCCTCACACTC (5mC at 9 13 15 29 35)	2480
GAGGCCGACCGCGTCGTGCCTCCTGGCACGACGCGGTCGGCCTCACACTC (5mC at 9 15 29)	3390
GAGGCCGACGGCGTCGTGCCTCCTGGCACGACGCCGTCGGCCTCACACTC (5mC at 9 15 29 35)	3130
GAGGCCGGCTGCGGTCAGCCTCCTGGCTGACCGCAGCCGGCCTCACACTC	2770
GAGGCCCGATGACGTCAGCCTCCTGGCTGACGTCATCGGGCCTCACACTC	26000
GAGGCCGGATTACGTCAGCCTCCTGGCTGACGTAATCCGGCCTCACACTC	10000
GAGGCCGACGATGTCGTGCCTCCTGGCACGACATCGTCGGCCTCACACTC (5mC at 9 15 29 35)	2800
GAGGCCGGATGACGTCAGCCTCCTGGCTGACGTCATCCGGCCTCACACTC (5mC at 37)	22100
GAGGCCGGCTGACGCGAGCCTCCTGGCTCGCGTCAGCCGGCCTCACACTC (5mC at 15 29)	5370
GAGGCCGGATGCCGTCAGCCTCCTGGCTGACGGCATCCGGCCTCACACTC	3150

Sample 2
Target: Sal-like protein 4, full length isoform A (SALL4, Homo sapiens, UniProt Q9UJQ4, residues 1-1053)
Chain of UniProt Q9UJQ4 (whole entry, looked up): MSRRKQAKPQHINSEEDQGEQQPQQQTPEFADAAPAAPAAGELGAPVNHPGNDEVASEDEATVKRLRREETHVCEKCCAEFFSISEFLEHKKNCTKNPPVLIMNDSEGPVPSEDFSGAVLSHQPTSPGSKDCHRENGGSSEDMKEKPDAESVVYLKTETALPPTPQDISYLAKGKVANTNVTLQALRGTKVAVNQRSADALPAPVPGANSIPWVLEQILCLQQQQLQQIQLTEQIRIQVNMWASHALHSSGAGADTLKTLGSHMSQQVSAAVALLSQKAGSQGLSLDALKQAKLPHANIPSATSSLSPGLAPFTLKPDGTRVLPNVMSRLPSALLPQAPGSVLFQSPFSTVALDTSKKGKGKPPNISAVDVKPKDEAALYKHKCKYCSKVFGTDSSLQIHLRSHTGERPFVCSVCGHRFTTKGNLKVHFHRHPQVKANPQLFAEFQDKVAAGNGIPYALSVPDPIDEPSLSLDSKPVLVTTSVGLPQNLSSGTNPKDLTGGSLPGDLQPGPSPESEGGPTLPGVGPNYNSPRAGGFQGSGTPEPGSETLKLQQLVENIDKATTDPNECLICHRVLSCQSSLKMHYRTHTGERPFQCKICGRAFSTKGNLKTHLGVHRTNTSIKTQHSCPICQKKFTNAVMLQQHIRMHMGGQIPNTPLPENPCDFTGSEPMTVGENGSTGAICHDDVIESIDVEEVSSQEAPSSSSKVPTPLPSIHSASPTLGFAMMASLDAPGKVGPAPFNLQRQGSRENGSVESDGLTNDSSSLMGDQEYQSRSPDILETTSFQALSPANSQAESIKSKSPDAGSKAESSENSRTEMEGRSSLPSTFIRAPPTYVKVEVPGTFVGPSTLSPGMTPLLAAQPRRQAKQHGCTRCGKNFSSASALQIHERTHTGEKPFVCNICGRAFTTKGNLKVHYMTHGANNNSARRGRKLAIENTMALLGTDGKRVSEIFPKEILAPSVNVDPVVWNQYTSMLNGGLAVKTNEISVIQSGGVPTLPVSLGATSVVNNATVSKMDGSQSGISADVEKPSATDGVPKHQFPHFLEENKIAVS
Method: universal PBM
Form: double-stranded DNA, one strand shown
Sample: in vitro
Tested at: 600 nM
Notes: 8-mer, flanks averaged, mean of replicates
Direction: higher = stronger binding
Sequence	E-score
CCTCCAGG	-0.269
CATAGACG	0.115
ACTAGTCT	0.00575
GGTGGTAC	-0.28
AACCAAGT	0.0947
AAAGCACT	0.0775
GGCCCAAA	-0.249
GAAAGTCA	0.0634
GTCTCAAA	0.0326
GGATAAGA	-0.0209
GTAACCAA	-0.0452
GCGCTAGA	-0.127
AGCACGCC	-0.271
GATTACGA	0.167
GAAGATTA	0.207
ACGTATTA	0.319
AGGAATAC	0.169
CATTCCAC	0.0573
AGTCTGAT	0.0471
ACAGCGAA	0.0051
CTTGTTAC	0.185
AGCAGCAT	0.0102
GCTGACTA	-0.16
CTAACTAC	-0.0123
CAATGAGC	-0.166

Sample 3
Target: Prothrombin, mature alpha-thrombin (F2, Homo sapiens, UniProt P00734)
Method: aptamer microarray, sandwich
Form: DNA with 2'F-ANA
Sample: in vitro
Tested at: 200 nM
Notes: whole 15-mer aptamer, many near background
With: Cy3 exosite-II aptamer, 400 nM
Direction: higher = stronger binding
Sequence: GGTTGGTGTGGTTGG
Modification	mean fluorescence intensity [a.u.]
2'F-ANA at 1 5 6 8 9 15	80.1
2'F-ANA at 3 5 11 12 13 14	60.4
2'F-ANA at 3 5 6 7 8 12 13	212
2'F-ANA at 1 5 6 7 9 10 11 12 15	50.4
2'F-ANA at 1 3 4 6 7 11 14	65.1
2'F-ANA at 1 3 4 6 7 11 12 14 15	76.9
2'F-ANA at 3 6 9 10 11 12 15	424
2'F-ANA at 1 3 4 5 6 9 12 15	110
2'F-ANA at 2 7 8 9 12 13 15	651
2'F-ANA at 3 4 5 6 8 11 14 15	49.1
2'F-ANA at 2 3 4 5 8 9 11 12	166
2'F-ANA at 4 5 6 7 9 10 12	52.3
2'F-ANA at 1 3 5 7 8 9 10 11 12 14 15	47.6
2'F-ANA at 2 3 4 8 9 12 14 15	311
2'F-ANA at 3 5 6 7 9 10 13 14 15	58.7
2'F-ANA at 1 2 6 7 10 13 15	50
2'F-ANA at 2 4 6 7 8 9 10 13 14 15	101
2'F-ANA at 1 2 8 9 14	53.5
2'F-ANA at 3 5 6 7 9 10 12 13 14 15	47.5
2'F-ANA at 1 2 3 5 7 13 15	61.9
2'F-ANA at 1 2 3 5 7 8 9 12 13 14	60.6
2'F-ANA at 1 3 5 7 8 10 11 13 15	48.5
2'F-ANA at 1 2 3 7 9 10 11 13	62.4
2'F-ANA at 1 2 4 9 13 14	44.8
2'F-ANA at 2 3 6 8 9 11 12 14 15	403

Sample 4
Target: RNA binding protein fox-1 homolog 2, RRM domain, GST-SBP tag (RBFOX2, Homo sapiens, UniProt O43251-10, residues 100-194)
Method: RNA Bind-n-Seq
Form: RNA
Sample: in vitro
Tested at: 365 nM
Notes: natural RNA segment, single round, ends assumed
Reference: no-protein control
Direction: higher = stronger binding
All sequences stand within: GGGAGUUCUACAGUCCGACGAUC … UGGAAUUCUCGGGUGCCAA
Residues (chain): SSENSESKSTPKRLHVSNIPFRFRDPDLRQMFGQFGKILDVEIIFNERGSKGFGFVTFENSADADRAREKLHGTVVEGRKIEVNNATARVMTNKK
Sequence	RBNS enrichment (R)
CUUCAUCCAGAAUGAGCAAAACACUGUCCAGUCUUUGUUACGAUUUUGUAAUAAAUGUGUACAUUUUUUUUAAAUUUUGGACAUCACAUGAAUAAAGGUAUGUAUGUACG	0.263
UUAACAAACAUUAGCUGCUCCACCUAUGUAGAGUAUAUCAUGUGAGGUUGUUGCUUUGAAUAUCAAUCAGAAAAUCCACAUCUGAAGACAAAUUUGAACCCCAUUUUAGA	0.349
GGCCGGGGGCCCCCCGAUGCCUUGGCAGUGCCAGCCACGGGAACCAGGAGCGAGAGACGGUGCCAGAACGCCGGGGCCCGGGGCAACUCCGAGUGGGUGCUCAAGUCCCC	0.306
GUUUUGAGUAAACUCAGUAUGCAUGUGUGAAUGCUGAAUCACAGGAAUGGUGUUGAGGCUACCAAGAAGAAAUCCAUGCAGCCACUUUGGGUUUUGUUAUAGGCAUCAGU	25.6
GAAAAAAGUGUUGGCCUUUUUGCGGGACCAGAUUUUUAAGAUAAAAUAAAUAUUUUUACUUCUGUCAUUGUAUGUGAAAGAUGAAUGUGUUUCUGGCCGCGUGGCUGUUA	0.463
UUUGCUGCCUCGCCAGUAGAGGGUGCCGCUGUGCAGGGUAACUGCCCGCCUGCUCCCUUCCUGACCUCCCCUGACCCCGAAGAUCACUACCUCUGUCAUUCAGGCAUUGG	0.264
CCCACCCCUUCUAAAGUGCAAUGCAAAAGGGACAUCAUGUAUAUGCAGCGUUUGUUUGGAAUUUUCUUUGCUUUUGUUUUCUUUGCGGUUGUUCUGUGUGCAUGGAUUCC	1.74
UGUGGAGCUGCGGCAGUAGGCCCCCAGCCCCCCCCCGGAGCUGCGCCCUGGAUCCUCACACUACAGAUCAGGCCUUCUUUGGUUCUUGGGUGGUUUUGGGUUUUUUCUGU	0.82
CCCACCUUGUUUCCCAGCCUGCACCUUAGAAGCCGAAGGUGCUUUCAUCAGAACCCUAAAAUGGUCGUUGAAGGCGCCUGGGCCGCAGCCCAGCAGUAGUUGGAGAGGCA	0.401
GGUACAGUUUGUUUAUGCAGGAGGAUGGCAUGCCAACUUCCCAGCUGCCUACUAGCAGUUUAACAAGGAGCCUUGCUGUCUCAGACAGGUGAAAGAAAAUGUCAUGCAUG	1.31
UGUUGUCCACUGAUUAAUCAGCCUAUGUGCCUGACACUGGUCUUGCAGUACAACUGGAAGCCAAAACAAGGUGGAAGAUGUCCUGAAUUAAGAUGUUUUCACCACAUUGU	0.227
UUACCCUUCUCACUCACCAGGCCCACAGUCGCCUGCACUCAGUGCUGUUUGUAACACAUCUGUUAUUCUGCCUACCUGUACUUUUUGCUGCCCAUCCCUGUUGCCUUUGA	0.656

Sample 5
Target: Interferon regulatory factor 7, full length, phosphomimetic (IRF7, Homo sapiens, UniProt Q92985, residues 1-503, S101K/S471D/S472D/S475D/S476D/S477D/S483D/S484D/S487D)
Method: protein-binding microarray
Form: double-stranded DNA, one strand shown
Sample: in vitro
Tested at: 250 nM
Notes: 60-bp whole probe
With: salmon DNA 0.4 mg/ml
Reference: random background probes
Direction: higher = stronger binding
All sequences stand within: GCCTAGCAC … GTCTTGATTCGCTTGACGCTGCTG
Target sequence (chain): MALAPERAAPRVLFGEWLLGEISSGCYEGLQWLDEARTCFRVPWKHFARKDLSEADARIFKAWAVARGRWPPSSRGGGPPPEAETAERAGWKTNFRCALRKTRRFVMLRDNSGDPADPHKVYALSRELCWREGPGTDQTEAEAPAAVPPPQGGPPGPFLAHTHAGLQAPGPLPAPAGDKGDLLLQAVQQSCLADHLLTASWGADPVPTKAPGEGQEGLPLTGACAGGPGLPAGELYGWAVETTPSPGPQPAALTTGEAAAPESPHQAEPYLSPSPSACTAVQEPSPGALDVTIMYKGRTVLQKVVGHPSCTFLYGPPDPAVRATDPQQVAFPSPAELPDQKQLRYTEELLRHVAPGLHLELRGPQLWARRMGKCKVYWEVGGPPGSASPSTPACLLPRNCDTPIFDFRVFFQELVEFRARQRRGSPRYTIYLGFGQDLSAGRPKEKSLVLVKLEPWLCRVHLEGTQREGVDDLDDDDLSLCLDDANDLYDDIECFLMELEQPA
Sequence	log fluorescence [z-score]
TTAGAACTGGGGACTAGATTAGTGCTA	-0.418
TTAGGTATCCTGTTCCTTTAGTGCTAG	0.48
GACGGTCGCGGTTTCGGGACGTGCTAG	4.56
GACGGTCTCGGTATCGAGACGTGCTAG	1.89
GACCGACTGCTTTTCCTGACGTGCTAG	0.152
TCAAATTTCTTCCTCCCACTGTGCTAG	0.526
TTCCATTTCTGTTTTTGCTTGTGCTAG	1.97
GACGGTATGCTTTTCCTGACGTGCTAG	-0.158
GACGGTCTCGGTATTGGGACGTGCTAG	1.6
GACGGCCTGGGGTTTCGGGACGTGCTA	0.718
GGCGGTATCGACTATCGGGACGTGCTA	0.187
TCATATCTGGGTTCCCCACTGTGCTAG	0.54
TCAGTTTCCCCTATTTAACTGTGCTAG	3.71
TCATGTTTGGTTCTGATACTGTGCTAG	0.676
AGAGGCGGGAGGGGGCGGGGGTGCTAG	4.01
GGACGAGCGACGGTGACACTGTGCTAG	-0.492
GACGGTTGCGGTTCCGGGACGTGCTAG	0.722
GACGGTATCGGTCTCGGGAAGTGCTAG	0.996
TTAGGCATCGGACTGGGTTAGTGCTAG	-0.388
GACGGTTGCCTACTGCTGACGTGCTAG	-0.6
TTAGGTCTCCTACTACTTTAGTGCTAG	-0.15
TTTATTTTCTGAATGCCCTCGTGCTAG	1.52
TTAGATTTCATTTCCGATTAGTGCTAG	1.96
GACGAATTCGGGACTGGAGACGTGCTA	-0.23

Some of these lines once more (sample 3):
Modification	mean fluorescence intensity [a.u.]
2'F-ANA at 1 3 5 7 8 9 10 11 12 14 15	47.6
2'F-ANA at 2 3 4 8 9 12 14 15	311
2'F-ANA at 3 5 6 7 9 10 13 14 15	58.7
2'F-ANA at 1 2 6 7 10 13 15	50
2'F-ANA at 2 4 6 7 8 9 10 13 14 15	101
2'F-ANA at 1 2 8 9 14	53.5
2'F-ANA at 3 5 6 7 9 10 12 13 14 15	47.5
2'F-ANA at 1 2 3 5 7 13 15	61.9
